# Measurements from different studies.
# Numbered parts are unrelated; each lists some results of a single study.

# Set 1 — technique: protein-binding microarray; form: double-stranded DNA, one strand shown; matrix: in vitro; concentration: 250 nM; setting: 60-bp whole probe; with: salmon DNA 0.4 mg/ml; baseline: random background probes; direction: higher = stronger binding; shared flanks, not repeated: GCCTAGCAC … GTCTTGATTCGCTTGACGCTGCTG
# Target: Interferon regulatory factor 7, full length, phosphomimetic (IRF7, Homo sapiens, UniProt Q92985, residues 1-503, S101K/S471D/S472D/S475D/S476D/S477D/S483D/S484D/S487D)
# Chain of UniProt Q92985 (whole entry, unmodified, looked up): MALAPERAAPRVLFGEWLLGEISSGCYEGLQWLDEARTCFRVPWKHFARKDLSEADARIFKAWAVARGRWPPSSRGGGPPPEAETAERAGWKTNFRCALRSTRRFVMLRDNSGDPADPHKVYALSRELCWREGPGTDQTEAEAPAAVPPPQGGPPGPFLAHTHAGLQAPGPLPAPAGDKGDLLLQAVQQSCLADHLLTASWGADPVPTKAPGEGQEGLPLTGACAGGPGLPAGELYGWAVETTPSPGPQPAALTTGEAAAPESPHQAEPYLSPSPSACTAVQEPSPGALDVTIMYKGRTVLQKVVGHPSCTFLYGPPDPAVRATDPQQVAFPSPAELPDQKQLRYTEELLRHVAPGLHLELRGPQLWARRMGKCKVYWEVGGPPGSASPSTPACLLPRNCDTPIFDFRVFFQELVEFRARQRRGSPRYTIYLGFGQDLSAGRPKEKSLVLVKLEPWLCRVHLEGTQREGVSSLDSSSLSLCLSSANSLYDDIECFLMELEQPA
Sequence,log fluorescence [z-score]
TCACATTCCCCATTGTGACTGTGCTAG,1.97
CTTAGACTGTCCTGCTGGAGGTGCTAG,-0.388
GACGGTTTTGGGACTGGGGACGTGCTA,0.448
GAATGTCCTCCTCTCTCTTTGTGCTAG,0.144
TCACATTTCTGTTTTTGACTGTGCTAG,1.38
GACGGACTGGACACTGGGGGCGTGCTA,-0.131
GCCGATATCGGGTATCGAGACGTGCTA,0.2
GACGGTATCGGACTGGGGAGGTGCTAG,-0.297

# Set 2 — technique: RNA Bind-n-Seq; form: RNA; matrix: in vitro; concentration: not given; baseline: input RNA pool; direction: higher = stronger binding
# Target: RING finger protein unkempt homolog, zinc fingers 1-6, GST-SBP tag (UNK, Homo sapiens, UniProt Q9C0B0, residues 30-357)
# Setting: RNA with constant flanks, human and mouse sites, ends assumed
# Shared flanks, not repeated: GGGAGUUCUACAGUCCGACGAUC … CAACAGAGGAUUGAGCAUCA
# Construct (chain): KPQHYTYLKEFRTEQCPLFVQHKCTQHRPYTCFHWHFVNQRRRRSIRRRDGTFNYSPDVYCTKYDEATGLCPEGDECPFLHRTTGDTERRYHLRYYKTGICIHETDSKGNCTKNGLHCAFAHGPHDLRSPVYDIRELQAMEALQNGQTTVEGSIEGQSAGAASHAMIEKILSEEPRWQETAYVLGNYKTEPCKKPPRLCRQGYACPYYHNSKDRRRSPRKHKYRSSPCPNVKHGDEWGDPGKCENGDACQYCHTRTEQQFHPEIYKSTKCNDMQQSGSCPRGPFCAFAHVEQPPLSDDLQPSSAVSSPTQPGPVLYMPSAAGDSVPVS
Sequence,bound/input enrichment [ratio]
AUGGGAAUGGACAUCCACAGAUCCCUGUUGGUCACUGGGAUCCCUGAGUACUGUAGCCACGCAGAAAUUGAGGAGACCUUGAAUGGGGUCCUCUUGCCACUGGGCACAUACCGUGUGCUC,0.105
AGCGCCUCAGAUGAUCAGACCAUUCGGGUGUGGAACUGGCAGUCUAGAACCUGUGUCUGUGUGUUAACGGGGCACAACCAUUAUGUAAUGUGUGCUCAGUUCCACCCCUCUGAAGACCUG,2.46
AUGAUCCAACUCAAUGGAUGUCAGCCCAUGGAGAUCAAAGUGCUGGGUCCUUAUACCUUUAGUAUCUGUGACACUUCCAACUUCUCUGACUACAUCCGUGGAGGCAUCGUCAGUCAGGUC,0.0927
GCCAACAUCAAACGGGAACAGGGCAACAUUGAAGAGGCAGUUCGCCUGUAUCGCAAAGCAUUAGAAGUCUUCCCAGAGUUUGCUGCUGCACAUUCCAAUUUAGCAAGUGUACUGCAACAG,0.483
ACCUCUCUAGUAUGUUCUGUGACUCUGCUCAUUACAAUCCUGUGCUCUACAUUGAUCCUUGUAGCAGUUUUCAAAUAUGGCCAUUUUUCCCUAUAAGUUUUAUGUAGUUAAAUGCUUCCU,4.15
UAGGUCGUUCCCCAGCACCUCCAGGUUGGCCCACACAGGUACCAUAAGCUGCCUCGGCUCCCUGUGGCUUGUGCCCAUGCACCUGCCAGGGCCCAGCAGGCCAACCCAUCAUCUAGAGUA,89.3
CGUGAGAAGAUCGAGGCGGAGCUGCAGGACAUCUGCAACGAUGUGCUGGAGCUGUUGGACAAAUAUCUCAUUCUCAAUGCCACCCAGGCAGAAAGCAAAGUGUUCUACUUAAAAAUGAAA,0.1
AGAGAACAGUUUAAUGACCUCUCUAUUGACCUUCCUCGUAGGAAAAAACCACUCCCUCCUCGUUCAAUUCAAGAUUCUCUUGAUCUUUUCUUUAGGGCCGAAGAACUGGAGUAUUCUUGU,0.177

# Set 3 — technique: EMSA with sequencing; form: double-stranded DNA, one strand shown; matrix: in vitro; concentration: 10 and 20 nM; baseline: negative control set to 0; direction: higher = stronger binding
# Target: Hepatocyte nuclear factor 3-alpha (Foxa1, Mus musculus, UniProt P35582, residues 1-468, full length assumed)
# Setting: whole designed probe, mean of two concentrations, ends assumed
# Shared flanks, not repeated: GTGAGCGGTGCCCATTGATGGGGAAC … TTTCACTGGGATCGTGGGGAC
# Construct (chain): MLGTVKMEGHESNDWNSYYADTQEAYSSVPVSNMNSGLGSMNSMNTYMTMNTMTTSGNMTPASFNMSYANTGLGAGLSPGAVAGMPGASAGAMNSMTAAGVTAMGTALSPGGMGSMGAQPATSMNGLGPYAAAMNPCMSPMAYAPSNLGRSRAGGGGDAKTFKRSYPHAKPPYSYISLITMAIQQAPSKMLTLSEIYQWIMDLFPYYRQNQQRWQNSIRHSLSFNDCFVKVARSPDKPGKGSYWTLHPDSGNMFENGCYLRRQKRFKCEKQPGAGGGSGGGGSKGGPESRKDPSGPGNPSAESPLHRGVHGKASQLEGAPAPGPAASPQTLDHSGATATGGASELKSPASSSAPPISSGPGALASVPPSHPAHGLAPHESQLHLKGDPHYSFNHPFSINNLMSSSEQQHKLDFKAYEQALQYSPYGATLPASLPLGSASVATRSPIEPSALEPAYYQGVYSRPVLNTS
Sequence,normalised bound fraction
GGCTGCTTCTCCCTTTTGGCTGTTGTGCATATTGCTGCTATGAACATGGGTGTGCAAATACCTCTTTGAGTCACTGCTTTCACTTCTTTTTAGTATTTACTCAGCAGTGGAATTCCAGAGTCATGTGATAATTCTGTGTTTAATTTTTTTTGAGGAAACTCCATACTGTTCTCATGGTGGCTGCACCATTTAA,0.359 ratio
CTAATCTCTCTTGGCATCAGGACTTGGTCTTTTGCTGTAGGAGCCACACCAATGGATACCACTCAACCAAAGTGACCCTGGGACAGAGCCAGTATAAACACGGTCCCTCGTGAGTCAAGCGTCTGGGATAAGTGAACAAACACTGGGCTGAAAACCTGGGACTGGCTGGTTGTTTAAGAGCTATCACCTGCTC,0.164 ratio
TGGCCTTCTGGCCCTATCTGCTCCGTGCCCAACCCAGCGCCCCGCACAGTCGGAGCTTTGTAAATACGAGGTGACTGTCTGCCTACAAACTTTGTAAACATCACTTGAAAACGCCGCAGGGTATTGTGACATGGCCATACCACTATTTGTTTGCTATTGAATTTGTACTTCCCTGCCTTACTTTTGCTATTGC,0.383 ratio
ATCTTCCCCCTCTTCCTTGCCCCACCAGCTCACCTACGGGGGTTATTTGCACAAAGGAAAATAAATAAAGCCGGCATTCGTTAACGCAGTTCTGGCGCAAACTGCTGTTTGCTCTGGATGAATCATGGTCCTTTGGCGACGCCAGGCTCCGGGAGAGCAAAGCACCGTGTCAGGGCCATGATCCGGGGTGGCC,0.381 ratio
TGGAATTTTATGTTTTCCTGTTATCGCTTTATGTGGAATGCAGAATATAAAAGAAAAATTGAATTAATTGTAAATTAGTAGGATTAAATGCATGTTTACATAGATATTATTGTGGCTGAAATTATAACATGTTAATTTTCCTTTGTGGATATTAAAGTGATTCCCTTCTGAATGACAATATTTTAGGTGGAAA,0.296 ratio
ATCTTCCCCCTCTTCCTTGCCCCACCAGCTCACCTACGGGGGTTATTTGCACAAAGGAAAATAAATAAAGCCGGCATTCGTTAACCCTCTTCACGCGCATACTGCTGTTTGCTCTGGATGAATCATGGTCCTTTGGCGAGGCGTGGCTCCGGGAGAGCAAAGCACCGTGTCAGGGCCATGATCCGGGGTGGCC,0.377 ratio
CCACATCACACTGTTGCCACAAGCAGGATACAGTCATCACACAAACAGAGGATTATTACTTCTCAGCCACTCTTCTGCTATCTTCTTACTGAGTAATCTTCGAGAACTCAGTCCTTTGTGATGTACTAATATGAAACAGGAAAGGGAAAGCCCTAGGTGGCCATGATATAGTTAGTGCCTACGTTTCCAAGAA,-0.0366 ratio
CCAGTGGTAAACTGCACGACCATCTGACCTCCCTGAAGTTGCAGCCAAATACAGCACTGAGAATGTATGTGTCCTTTGTGAATATTGCACTTCTTGTTTACTTTGAAGAAGTCCTTTTCCCTGACACTCTAGAAATAAGGAGAAGCCTAGCCCTGGAGAAGAGCTTTACTGATGCCCACTACCACAGAACTGC,0.408 ratio

# Other studies, line by line
Molecule,target,test,test system,setting,measurement,value
DTWHGFKNM,"HLA class I histocompatibility antigen, A alpha chain, allele A*25:01 (Homo sapiens, UniProt P04439)",peptide-MHC binding,peptide,concentration not given,binding,inactive

# Some of these lines once more (set 3):
Sequence,normalised bound fraction
GGCTGCTTCTCCCTTTTGGCTGTTGTGCATATTGCTGCTATGAACATGGGTGTGCAAATACCTCTTTGAGTCACTGCTTTCACTTCTTTTTAGTATTTACTCAGCAGTGGAATTCCAGAGTCATGTGATAATTCTGTGTTTAATTTTTTTTGAGGAAACTCCATACTGTTCTCATGGTGGCTGCACCATTTAA,0.359 ratio
TGGCCTTCTGGCCCTATCTGCTCCGTGCCCAACCCAGCGCCCCGCACAGTCGGAGCTTTGTAAATACGAGGTGACTGTCTGCCTACAAACTTTGTAAACATCACTTGAAAACGCCGCAGGGTATTGTGACATGGCCATACCACTATTTGTTTGCTATTGAATTTGTACTTCCCTGCCTTACTTTTGCTATTGC,0.383 ratio
